# Assay results pooled from the literature.
# A part holds a random share of what one study measured.
# Sequence of UniProt Q15819 (whole entry, looked up): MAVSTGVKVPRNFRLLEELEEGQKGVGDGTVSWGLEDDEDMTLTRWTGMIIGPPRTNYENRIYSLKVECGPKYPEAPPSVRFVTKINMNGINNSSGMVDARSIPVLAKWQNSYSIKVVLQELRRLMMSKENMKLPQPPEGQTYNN
# Sequence of UniProt P11362 (whole entry, looked up): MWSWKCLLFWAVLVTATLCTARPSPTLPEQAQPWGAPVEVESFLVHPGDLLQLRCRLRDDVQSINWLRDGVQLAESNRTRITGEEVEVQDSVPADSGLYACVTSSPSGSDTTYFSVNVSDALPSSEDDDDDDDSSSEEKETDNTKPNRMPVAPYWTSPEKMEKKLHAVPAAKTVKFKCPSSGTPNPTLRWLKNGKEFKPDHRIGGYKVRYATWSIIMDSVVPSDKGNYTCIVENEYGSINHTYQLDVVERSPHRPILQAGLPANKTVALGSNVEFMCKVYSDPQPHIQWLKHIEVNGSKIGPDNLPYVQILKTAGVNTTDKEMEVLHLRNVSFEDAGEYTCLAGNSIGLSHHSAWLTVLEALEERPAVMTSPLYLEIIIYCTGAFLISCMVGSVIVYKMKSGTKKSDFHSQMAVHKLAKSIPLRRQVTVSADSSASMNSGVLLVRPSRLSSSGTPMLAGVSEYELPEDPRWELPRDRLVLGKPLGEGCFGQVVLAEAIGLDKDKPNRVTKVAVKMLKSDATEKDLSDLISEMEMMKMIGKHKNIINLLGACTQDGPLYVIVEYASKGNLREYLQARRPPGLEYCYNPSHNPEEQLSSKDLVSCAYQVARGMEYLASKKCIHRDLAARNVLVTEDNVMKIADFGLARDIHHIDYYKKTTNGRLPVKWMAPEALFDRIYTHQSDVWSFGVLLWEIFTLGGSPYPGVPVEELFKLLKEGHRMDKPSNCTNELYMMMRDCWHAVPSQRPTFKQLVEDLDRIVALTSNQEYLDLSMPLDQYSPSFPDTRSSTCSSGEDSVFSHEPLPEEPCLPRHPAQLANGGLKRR
# Sequence of UniProt P52333 (whole entry, looked up): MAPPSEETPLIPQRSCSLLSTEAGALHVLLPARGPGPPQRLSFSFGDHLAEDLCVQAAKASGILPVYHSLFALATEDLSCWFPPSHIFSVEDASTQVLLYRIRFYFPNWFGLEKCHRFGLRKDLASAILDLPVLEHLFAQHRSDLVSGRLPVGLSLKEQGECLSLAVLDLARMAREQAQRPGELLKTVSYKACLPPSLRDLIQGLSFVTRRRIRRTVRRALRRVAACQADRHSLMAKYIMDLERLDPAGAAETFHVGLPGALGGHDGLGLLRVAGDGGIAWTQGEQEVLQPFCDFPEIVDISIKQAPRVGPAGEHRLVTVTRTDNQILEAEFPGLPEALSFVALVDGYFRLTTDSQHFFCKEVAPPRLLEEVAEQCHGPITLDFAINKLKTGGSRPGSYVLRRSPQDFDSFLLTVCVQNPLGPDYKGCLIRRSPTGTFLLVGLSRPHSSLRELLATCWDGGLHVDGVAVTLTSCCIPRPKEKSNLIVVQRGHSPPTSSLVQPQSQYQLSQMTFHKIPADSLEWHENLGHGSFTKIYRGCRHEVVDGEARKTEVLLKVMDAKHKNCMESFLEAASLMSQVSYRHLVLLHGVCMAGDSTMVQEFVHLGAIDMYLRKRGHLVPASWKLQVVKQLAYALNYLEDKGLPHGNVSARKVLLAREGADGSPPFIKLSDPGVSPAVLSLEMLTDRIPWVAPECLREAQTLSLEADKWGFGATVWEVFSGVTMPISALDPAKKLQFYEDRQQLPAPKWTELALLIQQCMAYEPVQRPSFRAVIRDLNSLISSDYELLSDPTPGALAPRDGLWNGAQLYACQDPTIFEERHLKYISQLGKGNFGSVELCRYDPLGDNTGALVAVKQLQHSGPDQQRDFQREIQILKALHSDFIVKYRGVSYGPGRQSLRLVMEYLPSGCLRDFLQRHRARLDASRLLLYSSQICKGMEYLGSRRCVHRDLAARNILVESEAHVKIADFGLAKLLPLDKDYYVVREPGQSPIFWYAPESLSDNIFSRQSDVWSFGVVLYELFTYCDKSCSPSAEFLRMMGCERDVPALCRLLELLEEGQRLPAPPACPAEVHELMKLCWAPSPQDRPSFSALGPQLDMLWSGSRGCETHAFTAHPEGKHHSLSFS
# Sequence of UniProt P29320 (whole entry, looked up): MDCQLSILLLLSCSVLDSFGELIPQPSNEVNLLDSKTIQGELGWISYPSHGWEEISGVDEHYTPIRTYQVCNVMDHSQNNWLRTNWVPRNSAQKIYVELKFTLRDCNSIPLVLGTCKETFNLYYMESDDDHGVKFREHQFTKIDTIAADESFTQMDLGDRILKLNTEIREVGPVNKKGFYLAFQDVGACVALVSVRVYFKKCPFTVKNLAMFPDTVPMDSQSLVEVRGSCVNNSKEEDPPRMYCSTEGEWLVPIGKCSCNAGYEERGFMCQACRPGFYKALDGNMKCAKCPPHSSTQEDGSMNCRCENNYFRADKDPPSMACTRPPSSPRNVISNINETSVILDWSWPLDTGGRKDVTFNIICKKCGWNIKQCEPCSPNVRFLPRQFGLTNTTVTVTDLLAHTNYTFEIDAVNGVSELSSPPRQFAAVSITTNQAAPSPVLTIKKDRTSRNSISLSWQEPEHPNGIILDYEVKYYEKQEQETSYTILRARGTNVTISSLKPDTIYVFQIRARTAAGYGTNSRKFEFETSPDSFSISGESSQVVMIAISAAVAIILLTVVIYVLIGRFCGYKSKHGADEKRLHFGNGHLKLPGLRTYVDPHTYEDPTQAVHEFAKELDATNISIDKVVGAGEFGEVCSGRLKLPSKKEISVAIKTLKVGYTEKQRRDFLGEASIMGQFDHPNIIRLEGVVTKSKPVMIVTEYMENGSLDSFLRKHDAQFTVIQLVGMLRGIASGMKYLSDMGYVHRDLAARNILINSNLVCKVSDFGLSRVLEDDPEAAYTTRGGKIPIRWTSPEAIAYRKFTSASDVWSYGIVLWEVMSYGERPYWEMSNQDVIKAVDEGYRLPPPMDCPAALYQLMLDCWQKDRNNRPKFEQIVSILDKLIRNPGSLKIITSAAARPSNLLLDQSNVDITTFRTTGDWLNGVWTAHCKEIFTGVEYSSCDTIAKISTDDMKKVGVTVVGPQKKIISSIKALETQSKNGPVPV
# Sequence of UniProt Q9UHD2 (whole entry, looked up): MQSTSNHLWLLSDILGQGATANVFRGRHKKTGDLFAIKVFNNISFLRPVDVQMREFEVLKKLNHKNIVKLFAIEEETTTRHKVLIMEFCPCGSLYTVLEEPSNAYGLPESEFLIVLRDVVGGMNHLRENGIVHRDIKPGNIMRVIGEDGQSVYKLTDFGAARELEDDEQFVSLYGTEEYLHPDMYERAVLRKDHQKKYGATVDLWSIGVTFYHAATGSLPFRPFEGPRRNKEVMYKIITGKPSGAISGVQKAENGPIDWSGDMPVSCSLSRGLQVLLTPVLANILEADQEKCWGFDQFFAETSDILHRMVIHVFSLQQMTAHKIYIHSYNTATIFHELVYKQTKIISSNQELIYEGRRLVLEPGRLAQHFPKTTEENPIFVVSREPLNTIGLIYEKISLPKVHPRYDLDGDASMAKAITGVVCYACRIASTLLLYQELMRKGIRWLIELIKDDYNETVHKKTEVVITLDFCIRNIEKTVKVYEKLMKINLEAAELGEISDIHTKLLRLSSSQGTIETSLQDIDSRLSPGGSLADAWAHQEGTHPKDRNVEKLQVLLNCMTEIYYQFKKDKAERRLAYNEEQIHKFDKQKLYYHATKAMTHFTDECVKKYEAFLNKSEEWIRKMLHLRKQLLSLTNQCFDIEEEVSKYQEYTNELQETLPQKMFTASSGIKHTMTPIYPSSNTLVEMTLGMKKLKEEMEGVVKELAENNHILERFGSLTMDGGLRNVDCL
# Sequence of UniProt Q13404 (whole entry, looked up): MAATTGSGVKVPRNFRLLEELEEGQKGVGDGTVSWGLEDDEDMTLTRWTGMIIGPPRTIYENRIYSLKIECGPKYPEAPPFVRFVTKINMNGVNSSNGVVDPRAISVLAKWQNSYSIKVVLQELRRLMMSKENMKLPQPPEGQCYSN
# Sequence of UniProt P61088 (whole entry, looked up): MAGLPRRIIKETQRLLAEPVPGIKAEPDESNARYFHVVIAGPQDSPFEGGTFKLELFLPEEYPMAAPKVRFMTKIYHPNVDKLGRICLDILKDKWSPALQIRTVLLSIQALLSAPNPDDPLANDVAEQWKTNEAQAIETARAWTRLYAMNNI
# Sequence of UniProt Q96LR5 (whole entry, looked up): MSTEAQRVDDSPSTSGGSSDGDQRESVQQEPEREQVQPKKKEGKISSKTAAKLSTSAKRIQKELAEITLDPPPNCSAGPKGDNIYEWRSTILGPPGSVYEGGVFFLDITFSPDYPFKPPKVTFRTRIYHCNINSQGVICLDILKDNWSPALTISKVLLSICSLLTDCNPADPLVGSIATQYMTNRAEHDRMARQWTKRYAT
# Sequence of UniProt P60604 (whole entry, looked up): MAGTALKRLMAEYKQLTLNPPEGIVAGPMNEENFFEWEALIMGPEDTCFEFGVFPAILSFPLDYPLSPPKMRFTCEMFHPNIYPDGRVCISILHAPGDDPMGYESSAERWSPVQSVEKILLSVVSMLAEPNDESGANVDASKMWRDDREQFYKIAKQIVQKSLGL

# Series 1 — Molecule: RNF13 RING domain (UniProt O43567); method: yeast two-hybrid; matrix: yeast; setting: mostly zero background; reference: not given; reading: higher = stronger interaction
# Sequence of UniProt O43567 (whole entry, looked up): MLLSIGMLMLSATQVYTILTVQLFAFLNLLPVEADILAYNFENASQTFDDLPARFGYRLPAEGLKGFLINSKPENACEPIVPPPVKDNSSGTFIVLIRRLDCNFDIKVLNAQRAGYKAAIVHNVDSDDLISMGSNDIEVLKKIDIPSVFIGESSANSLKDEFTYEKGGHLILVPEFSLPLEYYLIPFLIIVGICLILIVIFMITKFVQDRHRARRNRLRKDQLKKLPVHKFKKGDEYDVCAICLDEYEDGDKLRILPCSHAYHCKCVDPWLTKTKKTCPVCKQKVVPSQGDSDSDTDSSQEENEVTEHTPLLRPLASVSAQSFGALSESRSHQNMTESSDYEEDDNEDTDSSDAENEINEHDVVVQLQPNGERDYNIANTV
target,lacZ reporter activity
UBE2G2 UBC core domain (UniProt P60604),8610
UBE2V2 UBC core domain (UniProt Q15819),0
UBE2V1 UBC core domain (UniProt Q13404),0
UBE2E2 UBC core domain (UniProt Q96LR5),0
UBE2N UBC core domain (UniProt P61088),5450
UBE2L6 UBC core domain (UniProt O14933),0

# Series 2 — read-out: cell-free assay; method: competition with immobilised ligand; concentration: 1 µM
# SMILES: CCC(=O)N[C@@H]1CC[C@H](C(=O)N(C)c2ccc(-c3nc4ccccc4o3)cc2)C1
target,remaining binding [%]
"Mitogen-activated protein kinase kinase kinase kinase 1 (MAP4K1, Homo sapiens, UniProt Q92918)",100
"Mitogen-activated protein kinase kinase kinase 12 (MAP3K12, Homo sapiens, UniProt Q12852)",100
"Phosphorylase b kinase gamma catalytic chain, skeletal muscle/heart isoform (PHKG1, Homo sapiens, UniProt Q16816)",100
"Mitogen-activated protein kinase kinase kinase 15 (MAP3K15, Homo sapiens, UniProt Q6ZN16)",100

# Series 3 — Compound: Cc1cc2ncc(-c3ccccc3)nc2cc1C; read-out: enzyme activity; action: inhibitor; concentration: 0.5 µM; reference: control
target,remaining activity [%]
"Mitogen-activated protein kinase kinase kinase 5 (MAP3K5, Homo sapiens, UniProt Q99683)",107
"Ephrin type-A receptor 3 (EPHA3, Homo sapiens, UniProt P29320)",109
"Serine/threonine-protein kinase ULK2 (ULK2, Homo sapiens, UniProt Q8IYT8)",108
"Serine/threonine-protein kinase TBK1 (TBK1, Homo sapiens, UniProt Q9UHD2)",93.8
"Mitogen-activated protein kinase kinase kinase 14 (MAP3K14, Homo sapiens, UniProt Q99558)",112
"Mitogen-activated protein kinase 3 (MAPK3, Homo sapiens, UniProt P27361)",106
"Tyrosine-protein kinase JAK3 (JAK3, Homo sapiens, UniProt P52333)",101
"Wee1-like protein kinase (WEE1, Homo sapiens, UniProt P30291)",105
"Fibroblast growth factor receptor 1 (FGFR1, Homo sapiens, UniProt P11362)",91.9
"Casein kinase I isoform gamma-2 (CSNK1G2, Homo sapiens, UniProt P78368)",86.5
"Fibroblast growth factor receptor 3 (FGFR3, Homo sapiens, UniProt P22607)",98
"Rhodopsin kinase GRK7 (GRK7, Homo sapiens, UniProt Q8WTQ7)",102

# Other studies, line by line — method: two-hybrid; reference: out of 4 tests; reading: higher = firmer interaction
# T1: itself; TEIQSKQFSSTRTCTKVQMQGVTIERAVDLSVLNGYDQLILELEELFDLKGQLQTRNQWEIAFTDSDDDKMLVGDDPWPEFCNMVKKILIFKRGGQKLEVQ
# T2: itself; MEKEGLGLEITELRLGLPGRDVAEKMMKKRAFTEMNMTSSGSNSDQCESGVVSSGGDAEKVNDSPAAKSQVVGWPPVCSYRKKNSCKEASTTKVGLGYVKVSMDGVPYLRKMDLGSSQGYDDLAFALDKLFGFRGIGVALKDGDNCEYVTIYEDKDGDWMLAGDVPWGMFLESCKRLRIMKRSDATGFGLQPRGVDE
# T3: itself; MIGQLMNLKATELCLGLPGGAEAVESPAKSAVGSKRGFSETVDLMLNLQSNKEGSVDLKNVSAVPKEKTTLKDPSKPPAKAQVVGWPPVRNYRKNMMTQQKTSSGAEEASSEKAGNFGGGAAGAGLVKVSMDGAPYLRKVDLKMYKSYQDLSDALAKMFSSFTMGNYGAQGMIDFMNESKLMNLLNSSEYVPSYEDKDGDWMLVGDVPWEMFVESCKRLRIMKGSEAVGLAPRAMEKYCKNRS
# T4: itself; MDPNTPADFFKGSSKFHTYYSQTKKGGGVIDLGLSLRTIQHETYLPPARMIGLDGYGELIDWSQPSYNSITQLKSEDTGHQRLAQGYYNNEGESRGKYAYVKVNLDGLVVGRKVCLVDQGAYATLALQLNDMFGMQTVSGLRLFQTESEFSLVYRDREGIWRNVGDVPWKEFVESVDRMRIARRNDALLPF
# B1: ARF22 498-598 (Arabidopsis thaliana, UniProt Q9C8N7); chain TEIQSKQFSSTRTCTKVQMQGVTIERAVDLSVLNGYDQLILELEELFDLKGQLQTRNQWEIAFTDSDDDKMLVGDDPWPEFCNMVKKILIFKRGGQKLEVQ
# B2: IAA19 (Arabidopsis thaliana, UniProt O24409); chain MEKEGLGLEITELRLGLPGRDVAEKMMKKRAFTEMNMTSSGSNSDQCESGVVSSGGDAEKVNDSPAAKSQVVGWPPVCSYRKKNSCKEASTTKVGLGYVKVSMDGVPYLRKMDLGSSQGYDDLAFALDKLFGFRGIGVALKDGDNCEYVTIYEDKDGDWMLAGDVPWGMFLESCKRLRIMKRSDATGFGLQPRGVDE
# B3: IAA32 (Arabidopsis thaliana, UniProt Q8RYC6); chain MDPNTPADFFKGSSKFHTYYSQTKKGGGVIDLGLSLRTIQHETYLPPARMIGLDGYGELIDWSQPSYNSITQLKSEDTGHQRLAQGYYNNEGESRGKYAYVKVNLDGLVVGRKVCLVDQGAYATLALQLNDMFGMQTVSGLRLFQTESEFSLVYRDREGIWRNVGDVPWKEFVESVDRMRIARRNDALLPF
Molecule,partner,positive tests
B1 (ARF22 498-598),"T1, itself",0
B2 (IAA19),"T2, itself",1
"IAA7 (Arabidopsis thaliana, UniProt Q38825)","T3, itself",0
B3 (IAA32),"T4, itself",0

# A few entries again (series 3):
target,remaining activity [%]
"Ephrin type-A receptor 3 (EPHA3, Homo sapiens, UniProt P29320)",109
"Serine/threonine-protein kinase ULK2 (ULK2, Homo sapiens, UniProt Q8IYT8)",108
"Serine/threonine-protein kinase TBK1 (TBK1, Homo sapiens, UniProt Q9UHD2)",93.8
"Mitogen-activated protein kinase kinase kinase 14 (MAP3K14, Homo sapiens, UniProt Q99558)",112
